Assay results of several laboratories.
Lines come from different studies, so protocols differ. ± marks the error that the study gave.
Cell line: U-87 MG

CCCCCCCCCCCCOc1c(O)cc(C(=O)OC2Cc3c(O)cc(O)cc3OC2c2cc(O)c(O)c(O)c2)cc1O (stereo not drawn)
phosphorylation level (Western blot, measured: phospho-AKT; 50 µM, 24 h; baseline: untreated): decreased

C=C1C(=O)OC2C1CCC1(C)CC1CCC1(C)OC21 (stereo not drawn)
IC50 (cell growth or viability, resazurin): 11.6 µM

CC1(C)C(/C=C/C2=C(Cl)C(=C/C=C3/N(CCCCCC(=O)O)c4ccccc4C3(C)C)/C[N+](C)(C)C2)=[N+](CCCCCC(=O)O)c2ccccc21
Pearson's correlation coefficient (organelle co-localization, confocal imaging; 20 µM, 24 h, golgi): 0.54

CCCCCCCCCCOc1c(O)cc(C(=O)OC2Cc3c(O)cc(O)cc3OC2c2cc(O)c(O)c(O)c2)cc1O (stereo not drawn)
LC3-II conversion (western blot; 50 µM, 24 h, added: chloroquine 20 µM): no effect

CC1(C)CC(=O)C(C2C([N+](=O)[O-])=C3NCCN3c3nc4ccccc4cc32)=C(O)C1 (stereo not drawn)
IC50 (cell growth or viability, MTT; 48 h): 10.8 µM

CCCCCCCCCCCCCCOc1c(O)cc(C(=O)O[C@@H]2Cc3c(O)cc(O)cc3O[C@@H]2c2cc(O)c(O)c(O)c2)cc1O
protein level (Western blot, measured: BCL-XL; 50 µM, 24 h; baseline: untreated): decreased

Cc1ccc(C(C)C)cc1.Cl.[Cl][Ru+].[Ru+].c1ccc(-c2cn(CCCCOc3ccccc3-c3nc4ccccc4s3)nn2)nc1
IC50 (cytotoxicity, MTT; 48 h): 63.3 ± 2.6 µM

CN1CCc2cc(Nc3ncc(C(F)(F)F)c(NCc4cc[nH]n4)n3)ccc2C1
IC50 (cell growth or viability, MTT; 72 h): 4.02 µM

COc1c(Oc2c(O)c(OC)c(OC)c3c2ccc2cc(O)ccc23)cc2c(c1OC)-c1ccc(O)cc1CC2
viability (cell growth or viability, CCK-8; 100 µM, 24 h): 8.38%

CC(=O)O[C@H]1C(=O)[C@]2(C)[C@@H](OC(=O)[C@H](N)CSC3CC(=O)N(CCC(=O)Nc4ccc(-c5ccc(/N=N/c6ccc7c(S(=O)(=O)O)cc(S(=O)(=O)O)c(N)c7c6O)c(C)c5)cc4C)C3=O)C[C@H]3OC[C@@]3(OC(C)=O)[C@H]2[C@H](OC(=O)c2ccccc2)[C@]2(O)C[C@H](OC(=O)[C@H](O)[C@@H](NC(=O)c3ccccc3)c3ccccc3)C(C)=C1C2(C)C (stereo partly drawn)
late apoptotic cells (annexin V/PI flow cytometry; concentration not given, 24 h): 13.2%

COc1cc(-c2cc(=O)c3c(O)cc(OC4OC(COC5OC(C)C(O)C(O)C5O)C(O)C(O)C4O)cc3o2)ccc1O (stereo not drawn)
IC50 (cell growth or viability, resazurin; 72 h): 42.5 µM

C=C1C(=O)OC2CC3=C[C@@H](C/C(C)=C/C(OC(=O)Cc4cccc5ccccc45)[C@H]12)OC3=O (stereo partly drawn)
IC50 (cell growth or viability, MTT; 24 h): 0.34 µM

C=C(C)[C@@H]1CC[C@]2(COC(=O)CCC(=O)O)CC[C@]3(C)[C@H](CC[C@@H]4[C@@]5(C)CC[C@H](OC(=O)CCC(=O)O)C(C)(C)[C@@H]5CC[C@]43C)[C@@H]12
IC50 (cell growth or viability, SRB; 72 h): 7.37 µg/mL

CCCCCCOc1c(O)cc(C(=O)OC2Cc3c(O)cc(O)cc3OC2c2cc(O)c(O)c(O)c2)cc1O (stereo not drawn)
IC50 (cell viability, CCK-8; 24 h): 63.36 ± 0.05 µM

CCN(CC)CCNC(=O)c1c(C)[nH]c(/C=C2\C(=O)Nc3ccc(F)cc32)c1C
IC50 (cell growth or viability, MTT; 72 h): 8.5 µM

A few entries again:
C=C1C(=O)OC2C1CCC1(C)CC1CCC1(C)OC21 (stereo not drawn)
IC50 (cell growth or viability, resazurin): 11.6 µM

CC1(C)C(/C=C/C2=C(Cl)C(=C/C=C3/N(CCCCCC(=O)O)c4ccccc4C3(C)C)/C[N+](C)(C)C2)=[N+](CCCCCC(=O)O)c2ccccc21
Pearson's correlation coefficient (organelle co-localization, confocal imaging; 20 µM, 24 h, golgi): 0.54
